Measurements collected from several papers.
A part holds a random share of what one study measured. Substitutions count along the parent as printed.

Set 1 — target: CCNE2, cyclin fold, Cln2 fusion (human); technique: yeast growth competition, sequencing; matrix: yeast; setting: weak parent motif; relative to: not given; reading: higher = stronger binding
Starting sequence: PKN2 docking peptide (human); DSTVTKLDFDLEP
`L11A` — result for “normalised enrichment score”: 0.0483.
`V4A`: “normalised enrichment score” -0.249.
Under “normalised enrichment score”, `K6A` is recorded as -0.102.
`P13A` — result for “normalised enrichment score”: -0.0506.
Under “normalised enrichment score”, `D8A` is recorded as -0.0254.
`D1A`: “normalised enrichment score” -0.21.

Set 2 — technique: RNA Bind-n-Seq; form: RNA; matrix: in vitro; tested at: 1 µM; setting: whole 134-nt RNA, ends assumed; added: 150 mM KCl; relative to: input library; reading: higher = stronger binding
Target: Ras GTPase-activating protein-binding protein 1, RRM domain (G3BP1, Homo sapiens, UniProt Q13283)
UniProt Q13283, sequence (whole entry, looked up): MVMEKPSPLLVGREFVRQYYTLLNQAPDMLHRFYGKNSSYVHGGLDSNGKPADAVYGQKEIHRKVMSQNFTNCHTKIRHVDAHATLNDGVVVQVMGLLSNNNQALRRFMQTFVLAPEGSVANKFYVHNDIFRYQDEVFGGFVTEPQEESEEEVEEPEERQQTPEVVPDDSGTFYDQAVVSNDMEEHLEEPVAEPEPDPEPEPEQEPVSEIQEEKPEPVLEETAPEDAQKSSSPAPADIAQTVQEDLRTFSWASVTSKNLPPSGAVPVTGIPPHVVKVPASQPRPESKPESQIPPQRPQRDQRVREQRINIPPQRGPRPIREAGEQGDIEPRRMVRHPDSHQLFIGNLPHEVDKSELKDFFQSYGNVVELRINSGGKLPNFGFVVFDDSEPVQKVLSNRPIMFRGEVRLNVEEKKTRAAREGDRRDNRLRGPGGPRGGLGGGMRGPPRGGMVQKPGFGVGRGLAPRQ
Shared flanks, not repeated: GGGAGUUCUACAGUCCGACGAUC … UGGAAUUCUCGGGUGUCAAGG
`CACAGACAACACGCACCCACACAGACACAGAGGGAAGAAAUUGGGAUGGGGACAGGGUGCACAGCAGGGCGGGGUAGGACCCCAGCCCCU` gave a log2 enrichment of -0.151.
The log2 enrichment of `UCCUGUGCUACACAUCGUAUGUACCGAAUCGGUUUUUUUGGUUUUUUUGGGUUUUUUUGGAAAGUAUUAUGUUACGCCGUUCGGAUCUGC` is reported as -0.093.
For `CCUCAAGUCCUGUGCUACACAUCGUAUGUACCGAAUCGGUUUGGAAAGGAGGAAAGUAUUAUGUUACGCCGUUCGGAUCUGCACUUCCAG`, the log2 enrichment was -0.112.
The log2 enrichment of `GUCCUGUGCUACACAUCGUAUGUACCGAAUCGGGGAAAAAGGGGAAAAAGGGGAGGGGAAAGUAUUAUGUUACGCCGUUCGGAUCUGCAC` is reported as 1.07.
For `CCUGUGCUACACAUCGUAUGUACCGAAUCGGGGUUUUUUUGGGGUUUUUGGGGAAAGGGGAAAGUAUUAUGUUACGCCGUUCGGAUCUGC`, the log2 enrichment was 0.265.
With `AGUCCUGUGCUACACAUCGUAUGUACCGAAUCGGGGUUUGGGGAAAAAGGGGUGGGGAAAGUAUUAUGUUACGCCGUUCGGAUCUGCACU` the log2 enrichment was 1.23.
`GUAAGUGUGGCAAUGUGAACUGAAGCUGAUGGGCUGAGAACAUGGACUGAGCUUGUGGUGUGCUUUGCAGGAGGACUUGAAGCAGAGUUC` has a log2 enrichment of 0.262.
`UCAAGUCCUGUGCUACACAUCGUAUGUACCGAAUCGGGUUUGGGUUUGGUUUGGGAAAGUAUUAUGUUACGCCGUUCGGAUCUGCACUUC` gave a log2 enrichment of -0.382.
The log2 enrichment of `CCUCAAGUCCUGUGCUACACAUCGUAUGUACCGAAUCGGGGCGGGGCGGCGGGAAAGUAUUAUGUUACGCCGUUCGGAUCUGCACUUCCA` is reported as -0.178.

Set 3 — technique: DHFR PCA, deep sequencing; matrix: yeast; added: (+)-ABA 0 µM; relative to: wild-type fitted maximum; reading: higher = stronger binding
Target: ABI1, truncated, D143A, DHFR fusion (Arabidopsis thaliana)
Setting: methotrexate growth selection, single substitutions
Starting sequence: PYL1, truncated, DHFR fusion (Arabidopsis thaliana); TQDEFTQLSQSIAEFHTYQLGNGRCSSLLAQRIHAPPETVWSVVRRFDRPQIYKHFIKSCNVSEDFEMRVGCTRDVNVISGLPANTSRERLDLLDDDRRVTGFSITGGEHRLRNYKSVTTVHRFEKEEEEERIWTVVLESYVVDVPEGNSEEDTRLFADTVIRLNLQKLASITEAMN; partner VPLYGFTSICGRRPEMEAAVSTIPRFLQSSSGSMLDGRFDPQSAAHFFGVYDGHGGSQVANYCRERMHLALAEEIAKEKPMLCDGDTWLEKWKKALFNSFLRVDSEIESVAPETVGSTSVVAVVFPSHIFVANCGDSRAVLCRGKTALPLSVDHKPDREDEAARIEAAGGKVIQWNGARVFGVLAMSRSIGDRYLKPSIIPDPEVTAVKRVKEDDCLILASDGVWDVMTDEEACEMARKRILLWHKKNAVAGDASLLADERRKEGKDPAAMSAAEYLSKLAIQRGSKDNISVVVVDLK
`V76M` — result for “relative binding score”: 6.98%.
`V78I`: “relative binding score” 44.7%.
`R88H`: “relative binding score” 48.8%.
`N114Y`: “relative binding score” 4.43%.
Under “relative binding score”, `P36T` is recorded as 18.2%.
`V142G`: “relative binding score” 1.93%.
For `Y115Q`, “relative binding score” read 6.02%.
For `D96W`, “relative binding score” read -9.67%.
`V137C`: “relative binding score” -8.29%.
Under “relative binding score”, `K54I` is recorded as -0.328%.
Under “relative binding score”, `Q7I` is recorded as 18.4%.
Under “relative binding score”, `F47P` is recorded as -1.98%.
`A158Y`: “relative binding score” 18%.
Under “relative binding score”, `E129G` is recorded as 55.6%.
`I105E`: “relative binding score” 0.578%.
`E38V` — result for “relative binding score”: -2.05%.
`Q31N`: “relative binding score” -1.42%.

Set 4 — technique: RNA Bind-n-Seq; form: RNA; matrix: in vitro; tested at: 365 nM; relative to: no-protein control; reading: higher = stronger binding
Target: RNA binding protein fox-1 homolog 2, RRM domain, GST-SBP tag (RBFOX2, Homo sapiens, UniProt O43251-10, residues 100-194)
Setting: natural RNA segment, single round, ends assumed
Shared flanks, not repeated: GGGAGUUCUACAGUCCGACGAUC … UGGAAUUCUCGGGUGCCAA
Under “RBNS enrichment (R)”, `GCUGUGUGUGUCCAGGCACGGUUCCUUACGCCCCAUGUGUGCUGUGUGUGUCCUGCCUGUAUAUGUGGCUUCCUCUGAUGCUGACAAGGUGGGGAACAAUCCUUGCCAGA` is recorded as 0.437.
`AGGUAGGCUGAGUAUUGGGAAUCCAAAUUGAAUUUUGAUUCUCCUUGGCAGUGAACUACUUUGAAGAAGUGGUCAAUGGGUUGUUGCUGCCAUGAGCAUGUACAACCUCU`: “RBNS enrichment (R)” 1.34.
`GGAACUAUCCCACCAAAGUGAGAACGUUAUGUCAUGGCCAUACAAGUAGUCUGUCAACCUCAGACACUGGUUUCGAGACAGUUUACACUUGACAGUUGUUCAUUAGCGCA`: “RBNS enrichment (R)” 1.45.
`UCUACCUCCUAAAAAUGUAGCUUAUUUUUAGGAUUUAAAUCACUAAGUAAAUAAGUAUCCUUGCCAAGUGAUCAUGAGUGUCAUUUUUGUUCUAAGACUAAUAUUUUUAG`: “RBNS enrichment (R)” 0.381.
For `CCCCCAUCCCUCACUUCUGGGCUGUCAUGCUCCUGGUGUGCCCCUUGCACUGGGGCUGGCUGGGUUGGAAAGUGGGCUGGACUUCAGCUGCCUUUCUACCCCCAAUGGCA`, “RBNS enrichment (R)” read 0.563.
`UUUUUAUUUUACAAAACAGAGAAACAACAAAAGGCUUGGAACUCCUUCAUUCUACGUGGAAUACUAGAUCCCGUUUGUUAGCCUUCGUGACUCCGUCCUUGUCUCCUGUA` — result for “RBNS enrichment (R)”: 0.82.
`GUGCAGGGCCUUGUGUUGUGUGGUUUUACUUGGGCUGGGGGUGGUUCUUGCGGUUUCUUCCAUUGCUUCUAGGCAGAGCCAAGGACUCAUCCUCACCAUCCAUACAUGGG` — result for “RBNS enrichment (R)”: 2.48.
Under “RBNS enrichment (R)”, `GCUAUUUUUACCUAUGUAUUUAUCGUUCUUGAUCAUAAGCCGCUUAUUUAUAUCAUGUAUCUCUAAGGACCUAAAAGCACUUUAUGUAGUUUUUAAUUAAUCUUAAGAUC` is recorded as 0.599.

Further values, each from its own experiment
For `PhoQ, residues 284 288 289 292 302 303 SSCLAV`, the fold induction was 11.5 (PhoP, residues 12 14 15 18 19 VQGLL (Escherichia coli, UniProt P23836); Sort-seq, refers to: YFP reporter; E. coli; PhoQ-PhoP variant library, added: 10 µM Mg2+; relative to: high Mg2+ state, higher = stronger signaling).

Excerpt of the above (set 1):
`V4A`: “normalised enrichment score” -0.249.
`L11A` — result for “normalised enrichment score”: 0.0483.
`D1A`: “normalised enrichment score” -0.21.
`P13A` — result for “normalised enrichment score”: -0.0506.
